Measurements pooled from the literature.
Lines come from different studies, so protocols differ. “And” joins repeats or separate records; there may be more than shown. Numbers after ± are the reported error.
ALB: Albumin (ALB, Bos taurus, UniProt P02769)

SMILES | target or system | assay | test system | setting | how to read | measurement | value
NCC[C@H](O)C(=O)N[C@@H]1C[C@H](N)[C@@H](O[C@H]2O[C@H](CN)[C@@H](O)[C@H](O)[C@H]2O)[C@H](O)[C@H]1O[C@H]1O[C@H](CO)[C@@H](O)[C@H](N)[C@H]1O | ALB | binding, tryptophan fluorescence quenching |  | pH 7.4, 283-310 K |  | ΔH° | -78.7 kcal/mol
CC[C@@H](C)[C@@H](NC(=O)[C@@H](Cc1ccc(O)cc1)NC(=O)[C@H]1CCCN1C(=O)[C@@H](CCCNC(=N)N)NC(=O)[C@H](N)Cc1c[nH]cn1)C(=O)N[C@H](C)C(=O)N[C@H](Cc1c[nH]cn1)C(=O)N[C@H](CCCNC(=N)N)C(=O)N[C@@H](C(=O)N[C@H](Cc1ccc(O)cc1)C(=O)N[C@H](CO)C(=O)N[C@H](Cc1ccccc1)C(N)=O)C(C)C | Transferrin receptor protein 1 (Tfrc, Mus musculus, UniProt Q62351) | flow cytometry | DC2.4 | 2 h, pH 7.4, unit not given | reference: 0 h | surface TFRC expression | 0.851
O=C(O)CN1Cc2cccc(n2)CN(CC(=O)O)Cc2cccc(n2)C1 | ALB | binding | HEPES buffer | 0.67 mM albumin, 1.4 T |  | r1 relaxivity | 17.4 mM⁻¹ s⁻¹
[O-][S+]1CCCCS1 (centres unmarked) | SOD1 (Homo sapiens, UniProt P00441, G94A) | intact protein LC-MS | SOD1 G93A transgenic mice, whole blood | intravenous, 10 mg/kg, 24 h, mean of two mice |  | target engagement | 25.8%
O=C(c1ccc([C@H]2[C@@H](F)[C@@H](F)C[C@@H](F)[C@H]2F)cc1)N1CC(O)C1 |  | liver microsome stability | human liver microsomes | 1 µM, without NADPH |  | hepatic clearance | 3.9 mL/min/kg
COc1cc(Nc2ncc3c(n2)-c2ccc(Cl)cc2C(c2c(F)cccc2OC)=NC3)ccc1C(=O)O | PRKD1 | kinase activity |  | 1 µM |  | remaining activity | 102%
O=c1c(O)c(-c2ccccc2)oc2cc3ccccc3cc12 | ALB | binding, ligand |  |  |  | association constant | ~10 1.000e+03 M⁻¹
C=CC(=O)N1CCC[C@@H](n2nc(-c3ccc(Oc4ccccc4)cc3)c3c(N)ncnc32)C1 | MYLK (Homo sapiens, UniProt Q15746) |  |  | 0.1 µM |  | remaining activity | 88.9%
CC(=C/C(=O)O)/C=C/C=C(\C)C1C=C2C(C)(C)CCCC2(C)O1 (centres unmarked) | Rhodopsin (RHO, Homo sapiens, UniProt P08100, E181K) | immunostaining, refers to: opsin | COS-7 transfected | 0.05 µM, unit not given | reference: surface over total stained cells | plasma membrane localization | 0
NC(=O)CCNC(=O)c1ccc(C2CCCCC2)cc1 |  | hepatocyte stability | cryopreserved mouse hepatocytes | 1 µM |  | hepatic clearance | 77 mL/min/kg
CC1(C)CN(CCCCC(=O)N[C@@H](CCCCNC(=O)CCCCCCC(=O)NCCCC[C@H](NC(=O)N[C@@H](CCC(=O)O)C(=O)O)C(=O)O)C(=O)O)CC[N]2CC(C)(C)[S][Tc]2(=[O])[S]1 (some centres unmarked) [technetium-99m labelled] | FOLH1 (Homo sapiens, UniProt Q04609) | radioligand, saturation binding | LNCaP | 1 h, 37 °C, with: [99mTc]TcO-6 |  | Bmax | 9 ± 1.5 pmol/mg
CO/N=C(\C(=O)N[C@@H]1C(=O)N2C(C(=O)O)=C(COC(N)=O)CS[C@H]12)c1ccco1 | beta-lactamase RAD-1 (Riemerella anatipestifer) | substrate, continuous spectrophotometric hydrolysis |  | 30 °C |  | Km | 297 ± 19 µM
O=C(Nc1c[nH]nc1-c1nc2ccc(CN3CCOCC3)cc2[nH]1)NC1CC1 | NanoBiT HiBiT/LgBiT luciferase | inhibitor, HiBiT luminescence counterscreen | conditioned medium only | 1.66 µM, 24 h | reference: vehicle | luminescence signal reduction | -0.68%
COc1cc(N2CCC(N3CCN(C)CC3)CC2)ccc1Nc1ncc(Cl)c(Nc2ccccc2P(C)(C)=O)n1 | ALK tyrosine kinase receptor/Echinoderm microtubule-associated protein-like 4 (Homo sapiens, UniProt Q9HC35+Q9UM73) | degrader, immunoblotting, refers to: ALK tyrosine kinase receptor/Echinoderm microtubule-associated protein-like 4 | Ba/F3 EML4-ALK | concentration not given, 6 h, unit not given | reference: untreated | protein level | 0.944 and 0.916 and 1.11
NCCCS(=O)(=O)O | SLC6A6 (Homo sapiens, UniProt P31641, Y138A) | binding, microscale thermophoresis |  | 488 nM, room temperature, with: 50 nM labelled protein | higher = more binding | normalised MST signal | 0.111
CC[C@H](C)[C@H](NC(=O)[C@H](Cc1ccccc1)NC(=O)[C@H](CCC(=O)O)NC(=O)[C@H](CCCNC(=N)N)NC(=O)[C@H](C)NC(=O)[C@H](C)NC(=O)[C@H](CCC(N)=O)NC(=O)[C@H](CCC(=O)O)NC(=O)[C@H](CCC(=O)O)NC(=O)[C@H](CC(C)C)NC(=O)[C@H](Cc1ccc(O)cc1)NC(=O)[C@H](CO)NC(=O)[C@H](CO)NC(=O)[C@@H](NC(=O)[C@H](CC(=O)O)NC(=O)[C@H](CO)NC(=O)[C@@H](NC(=O)[C@H](Cc1ccccc1)NC(=O)[C@@H](NC(=O)CNC(=O)[C@H](CCC(=O)O)NC(=O)[C@H](C)NC(=O)CCc1cnc[nH]1)[C@@H](C)O)[C@@H](C)O)C(C)C)C(=O)N[C@@H](C)C(=O)N[C@@H](Cc1c[nH]c2ccccc12)C(=O)N[C@@H](CC(C)C)C(=O)N[C@H](C(=O)N[C@@H](CCCNC(=N)N)C(=O)NCC(=O)N[C@@H](CCCNC(=N)N)C(=O)N[C@@H](CCCCNC(=O)COCCOCCNC(=O)COCCOCCNC(=O)CC[C@H](NC(=O)CCCCCCCCCCCCCCCCC(=O)O)C(=O)O)C(=O)NCC(=O)NCC(=O)N[C@@H](CO)C(=O)N[C@@H](CCCCNc1c(NCCCCCN(O)C(=O)CCC(=O)NCCCCCN(O)C(=O)CCC(=O)NCCCCCN(O)C(C)=O)c(=O)c1=O)C(=O)NCC(=O)NCC(=O)N[C@@H](CO)C(=O)N[C@@H](CCCCNc1c(NCCCCCN(O)C(=O)CCC(=O)NCCCCCN(O)C(=O)CCC(=O)NCCCCCN(O)C(C)=O)c(=O)c1=O)C(=O)NCC(=O)NCC(=O)N[C@@H](CO)C(=O)N[C@@H](CCCCNc1c(NCCCCCN(O)C(=O)CCC(=O)NCCCCCN(O)C(=O)CCC(=O)NCCCCCN(O)C(C)=O)c(=O)c1=O)C(=O)NCC(=O)NCC(=O)N[C@@H](CO)C(=O)N[C@@H](CCCCNc1c(NCCCCCN(O)C(=O)CCC(=O)NCCCCCN(O)C(=O)CCC(=O)NCCCCCN(O)C(C)=O)c(=O)c1=O)C(=O)O)C(C)C | GLP1R (Homo sapiens, UniProt P43220) | agonist, CRE luciferase reporter | BHK cells | metal-free DFO conjugate, with: 0% HSA | reference: parent peptide | fold potency loss | 18.9
O=C(COP(=O)(O)O)[C@@H](O)[C@H](O)[C@H](O)COP(=O)(O)O | Actin, alpha skeletal muscle (ACTA1, Homo sapiens, UniProt P68133) | thermal proteome profiling, refers to: ACTA1 | HepG2 cell lysate | concentration not given, 57 over 37 °C, mean | reference: compound over control | thermal stability ratio | 0.639
O=C(CO)NC1C(O)CC(OCC2OC(Oc3ccc([N+](=O)[O-])cc3)C(O)C(O)C2O)(C(=O)O)OC1C(O)C(O)CO (centres unmarked) | Sialidase-2 (Homo sapiens, UniProt Q9Y3R4) | substrate |  | 0.3 mM, 30 min, pH 5.0, 37 °C |  | sialic acid release | 41%
C[C@@H]1CCN(C(=O)CCl)[C@@H](C(N)=O)C1 | human NEDD9 full length | LC-MS/MS peptide mapping |  | 50 µM, 4 h |  | cysteine occupancy | 14%
C[C@@H]1CCO[C@H]2Cn3cc(C(=O)NCc4ccc(F)cc4F)c(=O)c(O)c3C(=O)N12 | SLC22A3 (Homo sapiens, UniProt O75751) | transport | MDCK-II, transfected | 10 µM, with: MPP+ 2 µM |  | inhibition | 0.849%
O=c1cc(-c2ccc([N+](=O)[O-])cc2)[nH]c2c(-c3ccc(Cl)cc3)c(Cc3ccccc3)nn12 | Kelch-like protein 7 (KLHL7, Homo sapiens, UniProt Q8IXQ5) | thermal stability, binder, thermal proteome profiling | RD, cell lysate | 50 µM, 0.5% DMSO | reference: DMSO vehicle | melting temperature shift | 3.2 °C
Nc1nc2c(ncn2[C@@H]2O[C@H](COP(=O)(O)O)[C@@H](O)[C@H]2O)c(=O)[nH]1 | GUK1 (Homo sapiens, UniProt Q16774, R41A) | enzyme activity, NADH-coupled |  | 15.62 µM |  | reaction rate | 0.915 s⁻¹ and 0.617 s⁻¹ and 1.06 s⁻¹
c1ccc(C(NCc2cccnc2)(c2ccccc2)c2ccccc2)cc1 | KCNQ1 (Homo sapiens, UniProt P51787) | whole-cell patch clamp |  | 300 pM | reference: control | current decay increase | 2 fold

Repeated from above:
SMILES | target or system | assay | test system | setting | how to read | measurement | value
C[C@@H]1CCO[C@H]2Cn3cc(C(=O)NCc4ccc(F)cc4F)c(=O)c(O)c3C(=O)N12 | SLC22A3 (Homo sapiens, UniProt O75751) | transport | MDCK-II, transfected | 10 µM, with: MPP+ 2 µM |  | inhibition | 0.849%
